Measurements gathered from unrelated publications.
Every numbered part comes from another study and shows a few of its results, in no order.

Study 1
Target: Sal-like protein 4, full length isoform B (SALL4, Homo sapiens, UniProt Q9UJQ4-2, residues 1-616)
Technique: universal PBM
Form: double-stranded DNA, one strand shown
Medium: in vitro
Tested at: not given
Notes: 8-mer, flanks averaged, mean of replicates
Reading: higher = stronger binding
Oligonucleotide | E-score
ATGACCAA | 0.2
AGAACTAG | -0.0352
CGATGGTC | -0.122
CAGCAGGA | -0.105

Study 2
Target: Histone acetyltransferase KAT6A, winged helix 2, GST fusion (KAT6A, Homo sapiens, UniProt Q92794, residues 85-181)
Technique: protein binding microarray
Form: double-stranded DNA, one strand shown
Medium: in vitro
Tested at: not given
Notes: 8-mer, flanks averaged, mean of 2 arrays, mostly near background
Relative to: not given
Reading: higher = stronger binding
Target sequence (chain): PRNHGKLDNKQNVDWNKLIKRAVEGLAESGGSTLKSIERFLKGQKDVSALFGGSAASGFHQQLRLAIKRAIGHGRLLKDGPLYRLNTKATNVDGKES
Oligonucleotide | E-score
AACCCACT | 0.254
CAGACGAC | -0.133
CTTTCTAA | 0.15

Study 3
Target: Interferon regulatory factor 7, full length, phosphomimetic (IRF7, Homo sapiens, UniProt Q92985, residues 1-503, S471D/S472D/S475D/S476D/S477D/S483D/S484D/S487D)
UniProt Q92985, sequence (whole entry, unmodified, looked up): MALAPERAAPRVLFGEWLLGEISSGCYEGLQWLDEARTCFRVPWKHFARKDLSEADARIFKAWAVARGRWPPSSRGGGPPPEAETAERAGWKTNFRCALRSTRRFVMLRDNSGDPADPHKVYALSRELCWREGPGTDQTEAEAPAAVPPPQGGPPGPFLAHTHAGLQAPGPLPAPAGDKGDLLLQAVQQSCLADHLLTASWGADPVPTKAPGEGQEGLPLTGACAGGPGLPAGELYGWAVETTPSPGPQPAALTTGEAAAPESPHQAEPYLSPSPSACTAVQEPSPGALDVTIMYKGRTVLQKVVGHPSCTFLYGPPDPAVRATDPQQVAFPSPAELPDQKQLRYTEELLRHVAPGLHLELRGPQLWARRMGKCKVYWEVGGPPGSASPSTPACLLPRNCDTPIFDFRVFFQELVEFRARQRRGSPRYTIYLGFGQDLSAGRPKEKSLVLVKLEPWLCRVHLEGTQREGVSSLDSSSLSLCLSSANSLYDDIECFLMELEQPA
Technique: protein-binding microarray
Form: double-stranded DNA, one strand shown
Medium: in vitro
Tested at: 2200 nM top
Notes: 60-bp whole probe
With: salmon DNA 0.4 mg/ml
Relative to: random background probes
Reading: higher = stronger binding
Oligonucleotide | fitted relative affinity [z-score]
GCCTAGCACTTAGGACTTCTACTGCTTTAGTGCTAGGTCTTGATTCGCTTGACGCTGCTG | 0.276
GCCTAGCACGACTGTTTCGACTATCGGGACGTGCTAGTCTTGATTCGCTTGACGCTGCTG | 2.81
GCCTAGCACATAGGTCTCGGACTGGGTTAGTGCTAGGTCTTGATTCGCTTGACGCTGCTG | -0.0781
GCCTAGCACTTAGGTTTCGGGACTCGGTTAGTGCTAGTCTTGATTCGCTTGACGCTGCTG | 4.7

Single results of other studies
Substance | target | assay | system | setting | how to read | endpoint | value
PhoQ, residues 284 288 289 292 302 303 TNSAEL | PhoP, residues 12 14 15 18 19 IQSYL (Escherichia coli, UniProt P23836) | Sort-seq, item: YFP reporter | E. coli | PhoQ-PhoP variant library, with: 10 µM Mg2+ | relative to: high Mg2+ state, higher = stronger signaling | fold induction | 18.5

For quick reference, copied from above (study 3):
Oligonucleotide | fitted relative affinity [z-score]
GCCTAGCACGACTGTTTCGACTATCGGGACGTGCTAGTCTTGATTCGCTTGACGCTGCTG | 2.81
GCCTAGCACTTAGGACTTCTACTGCTTTAGTGCTAGGTCTTGATTCGCTTGACGCTGCTG | 0.276
